{"data": "Measured values pooled from the literature", "note": "Every numbered part comes from another study and shows a few of its results, in no order.", "chain of UniProt P10721 (whole entry, unmodified, looked up)": "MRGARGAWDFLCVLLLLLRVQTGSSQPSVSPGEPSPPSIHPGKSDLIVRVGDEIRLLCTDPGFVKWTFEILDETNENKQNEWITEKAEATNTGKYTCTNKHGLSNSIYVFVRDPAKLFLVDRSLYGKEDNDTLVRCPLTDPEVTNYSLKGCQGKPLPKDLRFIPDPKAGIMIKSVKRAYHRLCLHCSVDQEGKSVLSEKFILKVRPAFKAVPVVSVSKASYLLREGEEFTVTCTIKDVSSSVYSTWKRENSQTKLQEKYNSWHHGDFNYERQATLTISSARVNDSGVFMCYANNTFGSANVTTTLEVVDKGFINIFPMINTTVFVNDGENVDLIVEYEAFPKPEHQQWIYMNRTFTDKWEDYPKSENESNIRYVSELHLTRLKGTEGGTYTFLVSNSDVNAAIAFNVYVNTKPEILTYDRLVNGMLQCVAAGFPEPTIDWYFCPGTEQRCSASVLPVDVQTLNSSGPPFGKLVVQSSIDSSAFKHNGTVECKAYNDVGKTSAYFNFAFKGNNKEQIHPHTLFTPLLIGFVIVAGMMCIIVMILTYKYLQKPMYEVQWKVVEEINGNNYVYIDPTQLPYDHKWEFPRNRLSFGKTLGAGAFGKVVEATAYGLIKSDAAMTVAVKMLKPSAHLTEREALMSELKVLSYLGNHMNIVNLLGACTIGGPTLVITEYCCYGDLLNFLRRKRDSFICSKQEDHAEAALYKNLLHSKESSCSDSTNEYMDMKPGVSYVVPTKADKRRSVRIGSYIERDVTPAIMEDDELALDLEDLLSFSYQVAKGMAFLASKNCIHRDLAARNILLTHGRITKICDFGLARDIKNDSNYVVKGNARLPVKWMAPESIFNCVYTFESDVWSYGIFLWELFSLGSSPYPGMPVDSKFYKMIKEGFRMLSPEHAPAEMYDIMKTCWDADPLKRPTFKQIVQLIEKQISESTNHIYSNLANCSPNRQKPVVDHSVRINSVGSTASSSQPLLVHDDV", "chain of UniProt Q8TD19 (whole entry, looked up)": "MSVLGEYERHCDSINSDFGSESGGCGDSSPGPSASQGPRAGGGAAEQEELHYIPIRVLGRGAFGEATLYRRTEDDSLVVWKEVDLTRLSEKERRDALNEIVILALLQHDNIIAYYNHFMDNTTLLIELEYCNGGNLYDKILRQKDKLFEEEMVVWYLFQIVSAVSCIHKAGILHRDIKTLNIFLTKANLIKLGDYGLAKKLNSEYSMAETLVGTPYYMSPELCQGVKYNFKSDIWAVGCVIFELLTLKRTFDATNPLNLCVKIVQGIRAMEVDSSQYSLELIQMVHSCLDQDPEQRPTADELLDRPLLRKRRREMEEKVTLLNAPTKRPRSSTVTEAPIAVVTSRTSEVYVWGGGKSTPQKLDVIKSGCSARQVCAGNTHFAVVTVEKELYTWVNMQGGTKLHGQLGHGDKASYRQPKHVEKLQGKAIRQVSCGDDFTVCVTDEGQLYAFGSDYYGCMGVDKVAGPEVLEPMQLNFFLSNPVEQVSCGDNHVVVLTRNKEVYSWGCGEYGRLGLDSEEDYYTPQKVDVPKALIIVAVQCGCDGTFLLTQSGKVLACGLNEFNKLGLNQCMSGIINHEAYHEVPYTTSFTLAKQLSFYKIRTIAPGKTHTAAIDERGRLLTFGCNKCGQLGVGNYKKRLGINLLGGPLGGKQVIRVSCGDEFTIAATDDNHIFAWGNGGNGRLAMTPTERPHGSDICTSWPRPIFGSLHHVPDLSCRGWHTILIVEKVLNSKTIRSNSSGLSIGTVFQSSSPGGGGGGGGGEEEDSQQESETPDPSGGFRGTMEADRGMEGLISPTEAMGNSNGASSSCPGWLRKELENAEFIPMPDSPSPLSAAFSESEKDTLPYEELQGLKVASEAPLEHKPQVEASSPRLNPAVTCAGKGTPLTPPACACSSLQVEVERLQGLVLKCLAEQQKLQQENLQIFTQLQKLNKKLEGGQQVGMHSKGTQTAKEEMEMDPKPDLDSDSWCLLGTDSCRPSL", "chain of UniProt O14578 (whole entry, looked up)": "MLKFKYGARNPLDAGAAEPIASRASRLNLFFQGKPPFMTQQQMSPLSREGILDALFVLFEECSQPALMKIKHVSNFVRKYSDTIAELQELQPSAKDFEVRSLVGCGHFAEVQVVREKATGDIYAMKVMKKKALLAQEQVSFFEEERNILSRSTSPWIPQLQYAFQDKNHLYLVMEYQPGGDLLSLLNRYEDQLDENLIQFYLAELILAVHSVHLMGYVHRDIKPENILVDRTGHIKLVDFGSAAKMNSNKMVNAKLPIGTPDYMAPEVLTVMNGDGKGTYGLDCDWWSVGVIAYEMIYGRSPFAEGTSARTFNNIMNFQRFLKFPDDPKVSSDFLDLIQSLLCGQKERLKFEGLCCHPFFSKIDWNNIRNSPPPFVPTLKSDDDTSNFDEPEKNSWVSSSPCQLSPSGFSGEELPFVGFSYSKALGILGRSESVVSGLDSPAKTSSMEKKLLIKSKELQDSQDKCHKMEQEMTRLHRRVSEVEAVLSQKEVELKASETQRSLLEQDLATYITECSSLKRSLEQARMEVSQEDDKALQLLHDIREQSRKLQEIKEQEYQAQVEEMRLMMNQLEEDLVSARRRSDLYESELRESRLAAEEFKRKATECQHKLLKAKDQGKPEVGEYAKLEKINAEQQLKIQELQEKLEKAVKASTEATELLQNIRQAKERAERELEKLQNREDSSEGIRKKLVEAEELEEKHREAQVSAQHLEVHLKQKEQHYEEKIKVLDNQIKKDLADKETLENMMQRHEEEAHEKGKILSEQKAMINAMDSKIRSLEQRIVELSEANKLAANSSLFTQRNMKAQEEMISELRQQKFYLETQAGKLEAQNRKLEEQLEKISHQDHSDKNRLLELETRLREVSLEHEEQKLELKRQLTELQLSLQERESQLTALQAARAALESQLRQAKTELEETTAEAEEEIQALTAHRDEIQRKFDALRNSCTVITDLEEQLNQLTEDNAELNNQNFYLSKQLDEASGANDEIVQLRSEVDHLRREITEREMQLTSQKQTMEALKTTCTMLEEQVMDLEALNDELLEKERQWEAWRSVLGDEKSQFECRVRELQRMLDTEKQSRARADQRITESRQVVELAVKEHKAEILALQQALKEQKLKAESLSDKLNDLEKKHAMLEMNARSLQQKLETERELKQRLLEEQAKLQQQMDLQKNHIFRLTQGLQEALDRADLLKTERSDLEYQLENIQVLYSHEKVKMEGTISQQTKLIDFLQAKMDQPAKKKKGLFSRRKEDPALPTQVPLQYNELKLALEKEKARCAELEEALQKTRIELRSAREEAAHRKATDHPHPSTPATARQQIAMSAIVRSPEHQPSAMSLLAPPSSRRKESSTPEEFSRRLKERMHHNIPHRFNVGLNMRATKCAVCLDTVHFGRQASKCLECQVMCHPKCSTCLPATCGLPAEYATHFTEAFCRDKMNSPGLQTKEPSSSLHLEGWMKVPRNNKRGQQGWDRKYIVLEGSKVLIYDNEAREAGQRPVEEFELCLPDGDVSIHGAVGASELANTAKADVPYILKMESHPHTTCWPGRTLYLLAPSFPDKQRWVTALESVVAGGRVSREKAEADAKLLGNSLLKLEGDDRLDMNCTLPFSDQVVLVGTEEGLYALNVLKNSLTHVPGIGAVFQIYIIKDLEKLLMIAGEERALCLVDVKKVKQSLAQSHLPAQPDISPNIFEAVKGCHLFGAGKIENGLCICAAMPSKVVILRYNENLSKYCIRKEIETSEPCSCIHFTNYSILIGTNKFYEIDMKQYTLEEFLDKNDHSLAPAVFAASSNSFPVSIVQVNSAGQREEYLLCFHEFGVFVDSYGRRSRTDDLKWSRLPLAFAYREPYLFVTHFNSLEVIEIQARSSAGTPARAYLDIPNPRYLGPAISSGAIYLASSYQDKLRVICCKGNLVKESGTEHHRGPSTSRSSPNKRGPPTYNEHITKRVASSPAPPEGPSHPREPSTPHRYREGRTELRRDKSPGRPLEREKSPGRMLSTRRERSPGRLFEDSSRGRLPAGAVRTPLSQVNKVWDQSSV", "chain of UniProt Q8NEB9 (whole entry, looked up)": "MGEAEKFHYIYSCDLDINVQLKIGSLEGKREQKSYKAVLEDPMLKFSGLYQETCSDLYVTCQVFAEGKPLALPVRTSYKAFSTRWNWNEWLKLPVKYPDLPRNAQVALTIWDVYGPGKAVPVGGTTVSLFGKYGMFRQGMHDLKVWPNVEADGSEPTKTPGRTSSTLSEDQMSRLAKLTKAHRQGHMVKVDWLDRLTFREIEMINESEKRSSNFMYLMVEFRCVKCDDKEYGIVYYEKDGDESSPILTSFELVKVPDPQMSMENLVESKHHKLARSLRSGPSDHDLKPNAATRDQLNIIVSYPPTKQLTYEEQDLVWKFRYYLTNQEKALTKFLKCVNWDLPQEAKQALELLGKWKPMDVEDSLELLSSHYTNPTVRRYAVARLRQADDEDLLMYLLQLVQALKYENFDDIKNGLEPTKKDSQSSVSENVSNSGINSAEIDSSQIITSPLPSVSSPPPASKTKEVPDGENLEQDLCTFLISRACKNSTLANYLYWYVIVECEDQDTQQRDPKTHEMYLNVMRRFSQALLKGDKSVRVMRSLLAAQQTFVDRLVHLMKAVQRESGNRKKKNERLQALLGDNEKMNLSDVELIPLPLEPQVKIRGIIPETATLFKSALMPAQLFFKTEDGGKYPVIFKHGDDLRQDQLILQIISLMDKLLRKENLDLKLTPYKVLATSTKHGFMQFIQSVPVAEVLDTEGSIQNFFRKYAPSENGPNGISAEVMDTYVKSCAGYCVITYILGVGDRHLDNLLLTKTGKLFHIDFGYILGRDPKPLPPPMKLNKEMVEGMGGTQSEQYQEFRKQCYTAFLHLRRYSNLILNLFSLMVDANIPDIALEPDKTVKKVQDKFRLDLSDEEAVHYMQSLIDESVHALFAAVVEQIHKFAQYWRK"}
{"data": "Sample 1", "Structure (SMILES)": "CCN1/C(=C/C=C2\\CCCC(/C=C/C3=[N+](CC)c4ccccc4C3(C)C)=C2NCCCCCCCCN2CCC(Nc3nc4ccccc4n3Cc3ccc(F)cc3)CC2)C(C)(C)c2ccccc21", "cell line": "U-87 MG", "concentration": "concentration not given", "baseline": "DMSO"}
{"refers to": "NMT2 mRNA", "log2 fold change": -0.845}
{"refers to": "PRPF3 mRNA", "log2 fold change": 1.46}
{"refers to": "TTK mRNA", "log2 fold change": -1.87}
{"refers to": "AFF4 mRNA", "log2 fold change": 0.815}
{"refers to": "SGTB mRNA", "log2 fold change": 1.91}
{"refers to": "TMEM182 mRNA", "log2 fold change": 0.866}
{"refers to": "DCBLD2 mRNA", "log2 fold change": -0.989}
{"refers to": "CAMK2A mRNA", "log2 fold change": -3.73}
{"refers to": "CMKLR1 mRNA", "log2 fold change": -2.83}
{"refers to": "FAM110A mRNA", "log2 fold change": -1.11}
{"refers to": "CDKN2AIP mRNA", "log2 fold change": 1.11}
{"data": "Sample 2", "SMILES": "COc1cc(-c2nc3ccc(C(=O)NCCCN4CCN(c5cccc(C)c5C)CC4)cc3n2C2CCC2)cc(OC)c1OC"}
{"target": "TGF-beta receptor type-2 (TGFBR2, Homo sapiens, UniProt P37173)", "effect on": "binding", "method": "competition with immobilised ligand", "concentration": "1 µM", "remaining binding": "81%"}
{"target": "Cyclin-dependent kinase-like 5 (CDKL5, Homo sapiens, UniProt O76039)", "effect on": "binding", "method": "competition with immobilised ligand", "concentration": "1 µM", "remaining binding": "96%"}
{"target": "Epidermal growth factor receptor (EGFR, Homo sapiens, UniProt P00533, del747-752/P753S)", "effect on": "binding", "method": "competition with immobilised ligand", "concentration": "1 µM", "remaining binding": "76%"}
{"target": "Phosphatidylinositol 3-kinase catalytic subunit type 3 (PIK3C3, Homo sapiens, UniProt Q8NEB9)", "effect on": "binding", "method": "competition with immobilised ligand", "concentration": "1 µM", "remaining binding": "69%"}
{"target": "Serine/threonine-protein kinase Nek1 (NEK1, Homo sapiens, UniProt Q96PY6)", "effect on": "binding", "method": "competition with immobilised ligand", "concentration": "1 µM", "remaining binding": "79%"}
{"target": "Mast/stem cell growth factor receptor Kit (KIT, Homo sapiens, UniProt P10721, T670I/V559D)", "effect on": "binding", "method": "competition with immobilised ligand", "concentration": "1 µM", "remaining binding": "100%"}
{"target": "Activin receptor type-2B (ACVR2B, Homo sapiens, UniProt Q13705)", "method": "KINOMEscan", "concentration": "1000 nM", "remaining binding": "95%"}
{"target": "eIF-2-alpha kinase GCN2, C-terminal kinase domain (EIF2AK4, Homo sapiens, UniProt Q9P2K8, S808G)", "effect on": "binding", "method": "competition with immobilised ligand", "concentration": "1 µM", "remaining binding": "100%"}
{"target": "Leukocyte tyrosine kinase receptor (LTK, Homo sapiens, UniProt P29376)", "effect on": "binding", "method": "competition with immobilised ligand", "concentration": "1 µM", "remaining binding": "60%"}
{"target": "Citron Rho-interacting kinase (CIT, Homo sapiens, UniProt O14578)", "effect on": "binding", "method": "competition with immobilised ligand", "concentration": "1 µM", "remaining binding": "96%"}
{"target": "Serine/threonine-protein kinase Nek9 (NEK9, Homo sapiens, UniProt Q8TD19)", "effect on": "binding", "method": "competition with immobilised ligand", "concentration": "1 µM", "remaining binding": "100%"}
{"target": "Mast/stem cell growth factor receptor Kit (KIT, Homo sapiens, UniProt P10721, A829P)", "effect on": "binding", "method": "competition with immobilised ligand", "concentration": "1 µM", "remaining binding": "85%"}
{"target": "Cyclin-dependent kinase 11B (CDK11B, Homo sapiens, UniProt P21127)", "effect on": "binding", "method": "competition with immobilised ligand", "concentration": "1 µM", "remaining binding": "99%"}
{"target": "Macrophage-stimulating protein receptor (MST1R, Homo sapiens, UniProt Q04912)", "effect on": "binding", "method": "competition with immobilised ligand", "concentration": "1 µM", "remaining binding": "100%"}
{"target": "Mitogen-activated protein kinase kinase kinase 5 (MAP3K5, Homo sapiens, UniProt Q99683)", "effect on": "binding", "method": "competition with immobilised ligand", "concentration": "1 µM", "remaining binding": "96%"}
{"target": "Fibroblast growth factor receptor 4 (FGFR4, Homo sapiens, UniProt P22455)", "effect on": "binding", "method": "competition with immobilised ligand", "concentration": "1 µM", "remaining binding": "99%"}
{"data": "Sample 3", "Structure (SMILES)": "Cc1ncsc1-c1ccc(C2(NC(=O)C3CC(O)CN3C(=O)C(NC(=O)c3ccc(COc4c(-c5c(C)c(F)cc6[nH]ncc56)c(C5CC5)cc5c(N6CC7CC6CN7)nc(OC6CCOCC6)nc45)cc3)C(C)C)CC2)cc1 (stereo not drawn)", "KRAS G12D GDP-bound": "GTPase KRas, GDP-bound (KRAS, Homo sapiens, UniProt P01116, G12D)"}
{"target": "KRAS G12D GDP-bound", "method": "SPR, multi-cycle", "matrix": "immobilized KRAS G12D", "notes": "binary, geometric mean", "koff": "0.00819 s⁻¹"}
{"target": "KRAS G12D GDP-bound", "method": "SPR, single-cycle", "matrix": "immobilized KRAS G12D", "notes": "binary, geometric mean", "koff": "0.00943 s⁻¹"}
{"target": "KRAS/VHL, GDP-bound (Homo sapiens, UniProt P01116+P40337, G12D)", "method": "SPR, single-cycle", "matrix": "immobilized KRAS G12D", "notes": "ternary, geometric mean", "together with": "VCB complex", "koff": "0.054 s⁻¹"}
{"target": "von Hippel-Lindau disease tumor suppressor, with Elongin B/C (VHL, Homo sapiens, UniProt P40337)", "method": "SPR, single-cycle", "matrix": "immobilized VCB complex", "notes": "binary, geometric mean", "koff": "0.0554 s⁻¹"}
{"data": "Sample 4", "cell line": "HCC1569", "method": "in-cell western", "refers to": "CDK1 phospho-Thr14", "time": "24 h"}
{"Structure (SMILES)": "Cc1ccc(O)c(C)c1-c1cnc2[nH]c(-c3cnc(N4CCC5(CC4)CC(N4CCN(c6ccc(NC7CCC(=O)NC7=O)cc6F)CC4)CO5)nc3)cc2c1C#N (stereo not drawn)", "IC50 [µM]": 0.018}
{"Structure (SMILES)": "Cc1ccc(O)c(C)c1-c1cnc2[nH]c(-c3cnc(N)nc3)cc2c1C#N", "IC50 [µM]": 0.044}
{"Structure (SMILES)": "Cc1ccc(O)c(C)c1-c1cnc2[nH]c(-c3cnc(N4CCC(CN5CCN(c6ccc7c(c6)C(=O)N(C6CCC(=O)NC6=O)C7=O)CC5)CC4)nc3)cc2c1C#N (stereo not drawn)", "IC50 [µM]": 0.029}
{"Structure (SMILES)": "Cc1ccc(O)c(C)c1-c1cnc2[nH]c(-c3cnc(N4CCC(CN5CCN(c6ccc7c(c6)CN(C6CCC(=O)NC6=O)C7=O)CC5)CC4)nc3)cc2c1C#N (stereo not drawn)", "IC50 [µM]": 0.052}
{"Structure (SMILES)": "Cc1ccc(O)c(C)c1-c1cnc2[nH]c(-c3cnc(N4CCC(CN5CCN(c6ccc7c(c6F)CN(C6CCC(=O)NC6=O)C7=O)CC5)CC4)nc3)cc2c1C#N (stereo not drawn)", "IC50 [µM]": 0.087}
{"Structure (SMILES)": "Cc1ccc(O)c(C)c1-c1cnc2[nH]c(-c3cnc(N4CC5(CC(CN6CCN(c7ccc(NC8CCC(=O)NC8=O)cc7F)CC6)C5)C4)nc3)cc2c1C#N (stereo not drawn)", "IC50 [µM]": 0.014}
{"Structure (SMILES)": "Cc1ccc(O)c(C)c1-c1cnc2[nH]c(-c3cnc(N4CCC(CN5CCN(c6cc7c(cc6F)c(N6CCC(=O)NC6=O)nn7C)CC5)CC4)nc3)cc2c1C#N", "IC50 [µM]": 0.055}
{"Structure (SMILES)": "Cc1ccc(O)c(C)c1-c1cnc2[nH]c(-c3cnc(N4CCC(CN5CCN(c6c(F)cc(NC7CCC(=O)NC7=O)cc6F)CC5)CC4)nc3)cc2c1C#N (racemic)", "IC50 [µM]": 0.049}
{"note": "For quick reference, copied from above (sample 3):"}
{"target": "KRAS G12D GDP-bound", "method": "SPR, multi-cycle", "matrix": "immobilized KRAS G12D", "notes": "binary, geometric mean", "koff": "0.00819 s⁻¹"}
{"target": "KRAS G12D GDP-bound", "method": "SPR, single-cycle", "matrix": "immobilized KRAS G12D", "notes": "binary, geometric mean", "koff": "0.00943 s⁻¹"}
{"target": "KRAS/VHL, GDP-bound (Homo sapiens, UniProt P01116+P40337, G12D)", "method": "SPR, single-cycle", "matrix": "immobilized KRAS G12D", "notes": "ternary, geometric mean", "together with": "VCB complex", "koff": "0.054 s⁻¹"}
{"target": "von Hippel-Lindau disease tumor suppressor, with Elongin B/C (VHL, Homo sapiens, UniProt P40337)", "method": "SPR, single-cycle", "matrix": "immobilized VCB complex", "notes": "binary, geometric mean", "koff": "0.0554 s⁻¹"}
